Measured values collected from several papers.
Every numbered part comes from another study and shows a few of its results, in no order.

Block 1
Target: Sal-like protein 4, full length isoform B (SALL4, Homo sapiens, UniProt Q9UJQ4-2, residues 1-616)
Method: universal PBM
Form: double-stranded DNA, one strand shown
Matrix: in vitro
Concentration: not given
Setting: 8-mer, flanks averaged, mean of replicates
Direction: higher = stronger binding
Residues (chain): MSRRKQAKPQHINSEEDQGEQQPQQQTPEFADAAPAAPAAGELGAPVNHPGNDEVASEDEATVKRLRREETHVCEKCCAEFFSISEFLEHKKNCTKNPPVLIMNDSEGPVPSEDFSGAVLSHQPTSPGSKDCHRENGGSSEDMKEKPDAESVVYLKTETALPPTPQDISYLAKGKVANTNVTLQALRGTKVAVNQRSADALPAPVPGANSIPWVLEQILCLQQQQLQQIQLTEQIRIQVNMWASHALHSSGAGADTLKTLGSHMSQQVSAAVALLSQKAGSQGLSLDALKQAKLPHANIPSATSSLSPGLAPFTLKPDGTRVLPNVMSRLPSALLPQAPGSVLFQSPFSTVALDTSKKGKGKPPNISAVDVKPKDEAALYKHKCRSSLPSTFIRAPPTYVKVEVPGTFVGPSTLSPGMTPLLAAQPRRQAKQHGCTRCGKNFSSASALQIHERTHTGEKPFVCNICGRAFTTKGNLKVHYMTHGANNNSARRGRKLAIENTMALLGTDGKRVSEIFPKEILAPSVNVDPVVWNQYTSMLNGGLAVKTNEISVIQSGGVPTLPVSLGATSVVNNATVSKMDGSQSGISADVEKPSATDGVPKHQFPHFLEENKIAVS
Sequence	E-score
GGCGCTCA	-0.276
AGTTGCAC	-0.179
CCAGGCCA	-0.347

Block 2
Target: RNA binding protein fox-1 homolog 2, RRM domain, GST-SBP tag (RBFOX2, Homo sapiens, UniProt O43251-10, residues 100-194)
Method: RNA Bind-n-Seq
Form: RNA
Matrix: in vitro
Concentration: 365 nM
Setting: natural RNA segment, single round, ends assumed
Reference: no-protein control
Direction: higher = stronger binding
Residues (chain): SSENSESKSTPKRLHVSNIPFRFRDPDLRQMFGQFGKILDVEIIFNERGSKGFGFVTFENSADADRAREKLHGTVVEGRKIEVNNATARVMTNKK
Sequence	RBNS enrichment (R)
GGGAGUUCUACAGUCCGACGAUCUCAUACUGGGAGGACCCCAGCUUUUCUUGCCAGCUCAGCAGUUCACUUCCUAGAGCAUCUGUCCCACUGGGACACAACCACUAAUUUGUCACUGGAACCUCCCUGGGCCUUGGAAUUCUCGGGUGCCAA	0.574
GGGAGUUCUACAGUCCGACGAUCCUGCUGCCCGUCCUGUGCUGGGGGCAUGCUGGGACCAGCCGCACCCAGGCCCCAAUGCUUGUGUGUGGACCAGCGGCUGCAGCCUUCUAGCCCCUCCUCCCCGCGAGACUUGGAAUUCUCGGGUGCCAA	2.29
GGGAGUUCUACAGUCCGACGAUCCUUUCUAAGGAGCUGGAUGGCAAGAGCUCUGGCUGAAGAAGCUCAACUCAGCACACACUCCUUCAGCCUGAGAUUUUUCAAAUCUUUGGCAACUGAGAUGGGAUGGAUCCUGGAAUUCUCGGGUGCCAA	0.244
GGGAGUUCUACAGUCCGACGAUCAGGAGAGACCUUAUUCCAAAGCACGAUUGCAGAAGGGGAAAGGGAAUAUUGCAAAAGGGAGAGGAAGGGGCCUUAUGGGAAUAGUGAAAAGGCUCAGACCGACCGAUGGCUGGAAUUCUCGGGUGCCAA	1.82

Block 3
Target: Fragile X messenger ribonucleoprotein 1, C-terminal low-complexity region (Fmr1, Mus musculus, UniProt P35922)
Method: RNA Bind-n-Seq
Form: RNA
Matrix: in vitro
Concentration: 200 nM
Setting: whole 134-nt RNA, ends assumed
Added: 150 mM LiCl
Reference: input library
Direction: higher = stronger binding
Library: 7-deaza-guanosine replaces G
Sequence	log2 enrichment
GGGAGUUCUACAGUCCGACGAUCGUCCUGUGCUACACAUCGUAUGUACCGAAUCGGGAAAGGGUUUUUUUGGGUUUUUGGGAAAGUAUUAUGUUACGCCGUUCGGAUCUGCACUGGAAUUCUCGGGUGUCAAGG	-2.18
GGGAGUUCUACAGUCCGACGAUCUUCCUCAAGUCCUGUGCUACACAUCGUAUGUACCGAAUCGGGAGGAGGAGGAAAGUAUUAUGUUACGCCGUUCGGAUCUGCACUUCCAGCUGGAAUUCUCGGGUGUCAAGG	-2.52
GGGAGUUCUACAGUCCGACGAUCGCAGGAAGUAAAAACAAAUGGAAAUGCUUCGGAUAGUGGCAGGGGUGGGGGUUGCUAAGGAAAGGGUGGGAUGGCAGUGGGUAAAGAGUUUGGAAUUCUCGGGUGUCAAGG	1.62

Single results of other studies
Molecule	target	assay	system	setting	scale	measurement	value
PhoQ, residues 284 288 289 292 302 303 NLGVHL	PhoP, residues 12 14 15 18 19 NMSFL (Escherichia coli, UniProt P23836)	Sort-seq, refers to: YFP reporter	E. coli	PhoQ-PhoP variant library, added: 10 µM Mg2+	reference: high Mg2+ state, higher = stronger signaling	fold induction	4

Some of these lines once more (block 3):
Sequence	log2 enrichment
GGGAGUUCUACAGUCCGACGAUCGUCCUGUGCUACACAUCGUAUGUACCGAAUCGGGAAAGGGUUUUUUUGGGUUUUUGGGAAAGUAUUAUGUUACGCCGUUCGGAUCUGCACUGGAAUUCUCGGGUGUCAAGG	-2.18
